Measured values from different studies.
A part holds a random share of what one study measured. Substitutions count along the parent as printed.

Block 1
Target: Sal-like protein 4, full length isoform A (SALL4, Homo sapiens, UniProt Q9UJQ4, residues 1-1053)
UniProt Q9UJQ4, sequence (whole entry, looked up): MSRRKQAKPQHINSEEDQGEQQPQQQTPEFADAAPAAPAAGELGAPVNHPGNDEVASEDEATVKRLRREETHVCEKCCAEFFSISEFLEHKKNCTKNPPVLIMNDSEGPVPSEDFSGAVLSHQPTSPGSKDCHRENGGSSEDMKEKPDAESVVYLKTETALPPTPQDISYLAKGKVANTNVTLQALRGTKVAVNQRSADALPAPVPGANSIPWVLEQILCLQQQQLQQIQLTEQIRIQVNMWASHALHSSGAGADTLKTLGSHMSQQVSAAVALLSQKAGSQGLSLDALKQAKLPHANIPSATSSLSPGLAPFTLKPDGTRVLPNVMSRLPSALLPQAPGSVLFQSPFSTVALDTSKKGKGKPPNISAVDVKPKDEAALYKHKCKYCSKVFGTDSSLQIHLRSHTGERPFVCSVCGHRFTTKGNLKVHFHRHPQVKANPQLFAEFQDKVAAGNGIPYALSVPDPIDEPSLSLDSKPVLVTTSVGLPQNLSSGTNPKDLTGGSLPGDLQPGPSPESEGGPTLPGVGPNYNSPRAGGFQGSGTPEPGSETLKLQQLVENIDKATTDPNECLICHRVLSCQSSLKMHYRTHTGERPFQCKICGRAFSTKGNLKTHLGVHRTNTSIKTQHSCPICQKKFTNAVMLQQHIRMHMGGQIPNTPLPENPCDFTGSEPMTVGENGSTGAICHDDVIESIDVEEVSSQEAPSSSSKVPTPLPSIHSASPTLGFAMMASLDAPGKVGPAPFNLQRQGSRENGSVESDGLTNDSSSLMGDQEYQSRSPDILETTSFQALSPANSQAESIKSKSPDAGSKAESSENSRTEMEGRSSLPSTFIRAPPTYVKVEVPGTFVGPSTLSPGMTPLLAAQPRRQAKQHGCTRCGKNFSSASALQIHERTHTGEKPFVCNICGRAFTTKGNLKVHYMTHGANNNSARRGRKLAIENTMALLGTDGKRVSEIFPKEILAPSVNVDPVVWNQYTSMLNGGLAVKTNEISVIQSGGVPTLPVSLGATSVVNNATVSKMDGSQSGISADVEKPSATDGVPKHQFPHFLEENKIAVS
Technique: universal PBM
Molecule type: double-stranded DNA, one strand shown
Matrix: in vitro
Tested at: 600 nM
Notes: 8-mer, flanks averaged, mean of replicates
Reading: higher = stronger binding
Measurement: E-score
AGACCATA: 0.118
GCAAAGGA: 0.0708
AATCCCAG: -0.0268
CATTACCA: 0.107
GGCCCGAA: -0.209
CACCCGCC: -0.2
AATTGATC: 0.102
ATGCGCCG: -0.152
AACAAAGT: 0.0996
AGTAACTA: 0.222
CGCGATTC: -0.0817
GGGATTAA: -0.00378
TACTGGCA: 0.0855
ACGAGGGA: 0.0182
CCTAATTC: 0.197
ACGTTTAT: 0.277
GTACGTAC: -0.0634
ACACGTGA: 0.00276
AAACCAAT: 0.198
CCTAGTCG: -0.119

Block 2
Target: ABI1, truncated, D143A, DHFR fusion (Arabidopsis thaliana)
Technique: DHFR PCA, deep sequencing
Matrix: yeast
Notes: methotrexate growth selection, single substitutions
Added: (+)-ABA 200 µM
Reference: wild-type fitted maximum
Reading: higher = stronger binding
Measurement: relative binding score
Starting sequence: PYL1, truncated, DHFR fusion (Arabidopsis thaliana); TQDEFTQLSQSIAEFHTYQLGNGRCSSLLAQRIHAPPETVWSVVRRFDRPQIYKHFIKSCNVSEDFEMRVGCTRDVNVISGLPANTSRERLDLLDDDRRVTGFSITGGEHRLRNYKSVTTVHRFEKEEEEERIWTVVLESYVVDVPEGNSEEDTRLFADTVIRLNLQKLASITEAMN
T135A: 85.5%
I105A: 57.4%
K58T: 92.3%
N149L: 35.3%
D75W: 105%
L166C: 7.02%
G23R: 96.2%
F15N: 84.6%
Q19L: 89.7%
E129T: 98.7%
T135E: -3.78%
T160F: 98.9%
L91V: 19.6%
R45C: 61.7%

Block 3
Organism: Saccharomyces cerevisiae
Observed: cell growth
Technique: competitive growth deep sequencing
Molecule type: peptide
Notes: peptide tiling library
Added: cyclin E2-Cln2 fusion
Reading: direction not given
Measurement: enrichment score
RRVLCFDS: 0.506
SCCKRKLVVGNGPEGP: -0.243
GFGFLLFICKLTF: 0.164
LRRQLSFSED: 0.812
RKLHFEDEVT: 0.944
ARKRLELGNLGNPQ: -1.12
KVKRRLDLDIDGLQKE: 0.301
LRRKLFLDGNGSIS: -1.2

Block 4
Target: Ras GTPase-activating protein-binding protein 1, full length (G3BP1, Homo sapiens, UniProt Q13283)
UniProt Q13283, sequence (whole entry, looked up): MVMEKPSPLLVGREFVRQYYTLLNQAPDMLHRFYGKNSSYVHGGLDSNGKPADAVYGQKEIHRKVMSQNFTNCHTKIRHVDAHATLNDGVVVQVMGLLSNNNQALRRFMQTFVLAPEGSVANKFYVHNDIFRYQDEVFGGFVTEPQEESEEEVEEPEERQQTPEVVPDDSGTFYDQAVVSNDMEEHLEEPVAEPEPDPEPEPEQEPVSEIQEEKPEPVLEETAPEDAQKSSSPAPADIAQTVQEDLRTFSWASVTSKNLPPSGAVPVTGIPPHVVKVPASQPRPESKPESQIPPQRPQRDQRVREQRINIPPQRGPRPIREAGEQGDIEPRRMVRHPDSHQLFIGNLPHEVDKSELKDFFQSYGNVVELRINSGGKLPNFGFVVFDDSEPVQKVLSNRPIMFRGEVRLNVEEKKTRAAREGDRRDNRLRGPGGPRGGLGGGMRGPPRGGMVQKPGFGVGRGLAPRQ
Technique: RNA Bind-n-Seq
Molecule type: RNA
Matrix: in vitro
Tested at: 200 nM
Notes: whole 134-nt RNA, ends assumed
Added: 150 mM LiCl
Reference: input library
Reading: higher = stronger binding
Measurement: log2 enrichment
Library: 7-deaza-guanosine replaces G
All sequences stand within: GGGAGUUCUACAGUCCGACGAUC … UGGAAUUCUCGGGUGUCAAGG
UAACUUUAGAGGAGGCUCUGAUGGAUAUGGCAGUGGACGUGGAUUUGGGGAUGGCUAUAAUGGGUAUGGAGGAGGACCUGGAGGUGGCAA: -0.283
GUCCUGUGCUACACAUCGUAUGUACCGAAUCGGGGAAAAGGGGAAAAGGGGAAAAGGGGAAAGUAUUAUGUUACGCCGUUCGGAUCUGCA: 0.142
CAAGUCCUGUGCUACACAUCGUAUGUACCGAAUCGGGCCCGGGGCCCGGCCCGGGAAAGUAUUAUGUUACGCCGUUCGGAUCUGCACUUC: -1.99
CUCAAGUCCUGUGCUACACAUCGUAUGUACCGAAUCGGGCCCGGCCCGGCCCGGAAAGUAUUAUGUUACGCCGUUCGGAUCUGCACUUCC: -0.29
UGGCCCUGGUGGCAUGCGGGGAGGAAGAGGUGGCCUCAUGGAUCGCGGUGGUCCCGGUGGAAUGUUCAGAGGUGGCCGUGGUGGAGACAG: 0.269
CAAGUCCUGUGCUACACAUCGUAUGUACCGAAUCGUGUGUGUGUGUGUGUGUGUGUAAAGUAUUAUGUUACGCCGUUCGGAUCUGCACUU: -0.828
UUACACAAACCUGCAGGUGAAGACAGGCCAGCGGACCCUCAUCAACCCCAAGCCCUGUGGCCAGUUUUGCUGCUGUGAAGUGCUGGGCUG: 0.107
CCUGUGCUACACAUCGUAUGUACCGAAUCGGCCCCCCCGGGCCCCCCCGGGCCCCCCCGGAAAGUAUUAUGUUACGCCGUUCGGAUCUGC: 0.347
ACCAUGCAGGUGGGCAUCUUUGGGAAGUGGGGCAAGGGGGGGAUAGGGAGGGGGGUAACACUUUGGGAACAGGUGGUCCAAGGUCGUUUC: 0.451
ACCAUGCAGGUGGGCAUCUGUGGGAAGUGGGGCAAGGGGGGGAUAGGGAGGGGGGUAACACUUUGGGAACAGGUGGUCCCAGGUCGUUUC: 0.178
GUCCUGUGCUACACAUCGUAUGUACCGAAUCGGAAAAAAGGGAAAAAAGGAAAAAAGGAAAGUAUUAUGUUACGCCGUUCGGAUCUGCAC: -0.718
